Assay results from different studies.
Numbered parts are unrelated; each lists some results of a single study. Changes are numbered by the printed parent chain.
UniProt Q9UQB9, sequence (whole entry, looked up): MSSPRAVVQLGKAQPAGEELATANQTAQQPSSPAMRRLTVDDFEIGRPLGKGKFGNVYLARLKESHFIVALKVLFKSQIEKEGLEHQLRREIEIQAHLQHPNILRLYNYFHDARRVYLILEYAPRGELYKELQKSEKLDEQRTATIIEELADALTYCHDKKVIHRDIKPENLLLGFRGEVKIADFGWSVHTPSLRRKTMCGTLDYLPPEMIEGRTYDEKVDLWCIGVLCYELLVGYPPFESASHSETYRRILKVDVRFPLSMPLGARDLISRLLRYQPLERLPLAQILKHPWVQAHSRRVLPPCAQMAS

Sample 1 — technique: RNA Bind-n-Seq; molecule type: RNA; matrix: in vitro; tested at: 100 nM; baseline: input RNA pool; direction: higher = stronger binding
Target: RING finger protein unkempt homolog, zinc fingers 1-6, SBP tag (UNK, Homo sapiens, UniProt Q9C0B0, residues 30-357)
UniProt Q9C0B0, sequence (30-357, looked up): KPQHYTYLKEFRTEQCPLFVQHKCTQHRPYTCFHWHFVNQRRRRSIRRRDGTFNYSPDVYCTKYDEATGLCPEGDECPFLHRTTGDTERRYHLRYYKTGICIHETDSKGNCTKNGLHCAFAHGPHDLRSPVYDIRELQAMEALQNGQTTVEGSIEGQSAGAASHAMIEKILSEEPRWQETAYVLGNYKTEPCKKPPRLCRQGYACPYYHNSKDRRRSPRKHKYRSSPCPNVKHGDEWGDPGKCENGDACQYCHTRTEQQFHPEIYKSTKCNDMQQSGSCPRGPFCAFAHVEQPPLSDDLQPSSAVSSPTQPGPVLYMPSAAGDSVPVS
Setting: RNA with constant flanks, vertebrate orthologous sites, ends assumed
Constant ends, left off below: GGGAGUUCUACAGUCCGACGAUC … CAACAGAGGAUUGAGCAUCA
Oligonucleotide	bound/input enrichment
CCUGAAGCUGUGUGUUUGGCUGCACCUGCAUAAGCUGCUACAAAUAGAAUAAAGAAUUCAUAGCCUGUAUCUAUCAUUAGAUGCAUGGAAAACUGGGCUUUGCACACAAUGGGUUUGAAG	1.27 ratio
GUAUCUUGGUUUGGGGUAGAGGGGAGGGAGGGGCAGGGCUGUGGAAUCUCUCCGGUAUAUGGGUAGAUAAGUGGACCUAUGUUAACCUCUGGGGCAUCUGUUUUGGGGGUGAGUAUGGGU	0.643 ratio
CUCAUUUCUAGGUUGGAUCUACCGGAAAAGUCAUCGGAAUUGACCACAUUAAAGAGCUAGUAGACGACUCAAUAAAUAAUGUCAGAAAGGAUGAUCCGAUGCUUUUGUCUUCAGGGAGAG	0.624 ratio
CUGCCCGUUUACCCCGUAAAAUAGGACUUUUUUAGAAUCCCAUCGCCACUUCUAAAAUCCUAGUAACACAUCAGCGAGAUAACUUUUAUUCGUUAUUUUACAAACCAAAUCGGUUUACUC	1.14 ratio
AAGCUCUAGUUUCUAACAACUGACACCCUAAAAGAUUUAGAAAAGGUUUACAACACAAUCUAGUUUACGAAGAAAUCUUGUGCUAGAAUACUUUUCAAAGUAUUUUUGAAUACCAUUAAA	0.363 ratio
UCCUCUGAACCCCAUAUCUUCUGUUUCAUAGUGCAGAAGUAUUCUUUUCAAUUCUAUUAUUAGUGGACUUGUUUUAAUUUUAGGGAAACUUUCAGUACAGAUACUGUGAGCUUACAUGGA	2.33 ratio
GAACCCCAGUCUGUAUGUACAUUAUUCACAUUCCUCUCUGUUGUGUUUGGGGAAGACAUUUUAGCCUUUUUUAAAGUUACUGAUUUAAUUUCAUAUUAUUUGGUUGCAUGAAAUUGCCCU	1.1 ratio
AGGAACAGCAUUGGCUGUUCAAGUCUUGAGGAGAUGAGCUUUUUGCUUUUCGUAUUUAAAUAGGAUAAUUUUAUAUGAUGGGUGCUUUUGAGUGUGAUUGCAGCAGACUCUCCAUUUCUG	0.67 ratio

Sample 2 — technique: competition protein-binding microarray; molecule type: double-stranded DNA, one strand shown; matrix: in vitro; tested at: 2 µM; together with: Cbf1 competitor, 0.05 µM; direction: higher = stronger binding; constant ends, left off below: … GTCTTGATTCGCTTGACGCTGCTG
Target: Phosphate system positive regulatory protein PHO4, full length, GST-tagged (PHO4, Saccharomyces cerevisiae, UniProt P07270, residues 1-312)
Setting: whole 60-bp probe, lowest competitor level
Target sequence (chain): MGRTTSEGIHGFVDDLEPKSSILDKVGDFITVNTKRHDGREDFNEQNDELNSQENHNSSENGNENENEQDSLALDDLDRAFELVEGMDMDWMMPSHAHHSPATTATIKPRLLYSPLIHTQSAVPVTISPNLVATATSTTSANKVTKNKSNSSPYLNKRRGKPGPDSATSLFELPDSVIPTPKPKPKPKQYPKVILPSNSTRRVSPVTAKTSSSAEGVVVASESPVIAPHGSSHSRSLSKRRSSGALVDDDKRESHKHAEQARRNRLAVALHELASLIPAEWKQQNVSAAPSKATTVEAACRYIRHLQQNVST
Oligonucleotide	fluorescence intensity [a.u.]
TACAGTCGTTGGGCCACCGTGACTCGTATCTGCGTC	4360
TGCGCAACAACTTGAGCGGTGGGTGTATGTCTAGAA	4200
AATAAAACAAGGCGCCATGTGACAGTTTCCAAAAGG	8990
CTTCTGTAAATTTTTCACGTGACCTGACGCGCCCCG	9980
ACCTACGAGTCCGGCCACGTGCGATCCGTAGCCATT	15600
TGCGCAACAACTTTTCACGTGGGATTATGTCTAGAA	12200
GTCTTGTCTCATTGTGGAGTGGGTGTCCCCACTTCA	4940
AAACCAGACAAGAGTCAGGTGACGCTGCAGATGAAA	3800

Sample 3 — technique: RNA Bind-n-Seq; molecule type: RNA; matrix: in vitro; tested at: 200 nM; setting: whole 134-nt RNA, ends assumed; together with: 150 mM LiCl; baseline: input library; direction: higher = stronger binding; each molecule: 7-deaza-guanosine replaces G
Target: Ras GTPase-activating protein-binding protein 1, full length (G3BP1, Homo sapiens, UniProt Q13283)
UniProt Q13283, sequence (whole entry, looked up): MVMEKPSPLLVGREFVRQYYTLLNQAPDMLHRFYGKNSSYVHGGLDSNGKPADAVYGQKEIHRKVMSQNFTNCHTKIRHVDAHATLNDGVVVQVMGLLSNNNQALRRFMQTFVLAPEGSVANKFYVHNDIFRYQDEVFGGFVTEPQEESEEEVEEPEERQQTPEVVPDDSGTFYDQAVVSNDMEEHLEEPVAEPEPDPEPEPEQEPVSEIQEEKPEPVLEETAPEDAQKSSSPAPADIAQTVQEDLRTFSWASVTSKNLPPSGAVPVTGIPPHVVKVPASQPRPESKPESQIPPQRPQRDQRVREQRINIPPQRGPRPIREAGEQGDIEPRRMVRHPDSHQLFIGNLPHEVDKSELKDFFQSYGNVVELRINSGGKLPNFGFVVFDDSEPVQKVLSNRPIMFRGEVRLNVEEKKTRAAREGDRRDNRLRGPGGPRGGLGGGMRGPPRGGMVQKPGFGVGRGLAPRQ
Constant ends, left off below: GGGAGUUCUACAGUCCGACGAUC … UGGAAUUCUCGGGUGUCAAGG
Oligonucleotide	log2 enrichment
GUCCUGUGCUACACAUCGUAUGUACCGAAUCGGGAAAGGGAAAAAGGGAAAAAAAGGGAAAGUAUUAUGUUACGCCGUUCGGAUCUGCAC	0.118
UGGGAGGUGGAUUUUGUUUAUUUUUUUAGCUCAUUUCCAGGGGUGGGAAUUUUUUUUUAAUAUGUGUCAUGAAUAAAGGUGUUUUUGAAA	0.146
UCCUCAAGUCCUGUGCUACACAUCGUAUGUACCGAAUCGGUGGGUGGGUGGGAAAGUAUUAUGUUACGCCGUUCGGAUCUGCACUUCCAG	0.953
UAACUUUAGAGGAGGAUCUGAUGGAUAUGGCAGCGGACGUGGAUUUGGGGAUGGCUAUAAUGGGUAUGGAGGAGGACCUGGAGGUGGCAA	-0.0799
AAGUCCUGUGCUACACAUCGUAUGUACCGAAUCGGAAAAGGGAAAAGGAAAAGGGGAAAGUAUUAUGUUACGCCGUUCGGAUCUGCACUU	-0.00194
CCUGUGCUACACAUCGUAUGUACCGAAUCGGGGAAAAAAAGGGGAAAAAGGGGUUUGGGGAAAGUAUUAUGUUACGCCGUUCGGAUCUGC	-0.147
AGUCCUGUGCUACACAUCGUAUGUACCGAAUCAAAUUUUUUUAAACCCAAACCCAAAAAAGUAUUAUGUUACGCCGUUCGGAUCUGCACU	1.18
ACCAUGCAGGUGGGCAUCUUUGGGAAGUGGGAAAAGGGGGGGAUAGGGAGGGGGGUAACACUUUGGGAACAGGUGGUCCCAGGUCGUUUC	0.38

Sample 4 — target: CCND1, cyclin fold, Cln2 fusion (human); technique: yeast growth competition, sequencing; matrix: yeast; setting: strong parent motif; baseline: not given; direction: higher = stronger binding
Starting sequence: viral docking peptide; YKVKRRLVFGADD; partner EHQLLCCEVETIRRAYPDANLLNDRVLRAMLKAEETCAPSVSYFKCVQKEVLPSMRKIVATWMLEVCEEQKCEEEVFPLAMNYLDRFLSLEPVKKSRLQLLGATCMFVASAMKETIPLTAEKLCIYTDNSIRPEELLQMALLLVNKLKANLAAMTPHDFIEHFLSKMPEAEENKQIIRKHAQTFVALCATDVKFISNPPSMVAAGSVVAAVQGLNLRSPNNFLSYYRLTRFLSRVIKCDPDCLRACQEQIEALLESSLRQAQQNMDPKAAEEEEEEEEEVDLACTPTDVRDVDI
Change	normalised enrichment score
K2H	2.08
K4M	0.22
V3P	0.728
D12V	1.16
G10T	1.93
L7F	0.581
R6P	0.618
R6F	0.417
V8R	0.308
F9A	-0.625
L7Y	-0.107
V3Y	0.199
K2I	0.859
D12N	1.48
G10I	1.08
R6Q	1.5
V8L	1.13
K4N	1.91

Single results of other studies
Structure (SMILES)	target	effect on	technique	tested at	endpoint	value
Cn1cncc1[C@@](O)(COc1ccc(C#N)cc1-c1ccc(OC(F)(F)F)cc1)c1ccc(C#N)cc1	Aurora kinase C (AURKC, Homo sapiens, UniProt Q9UQB9)	cell-free assay	competition with immobilised ligand	1 µM	remaining binding	90%

A few entries again (sample 2):
Oligonucleotide	fluorescence intensity [a.u.]
TGCGCAACAACTTGAGCGGTGGGTGTATGTCTAGAA	4200
AATAAAACAAGGCGCCATGTGACAGTTTCCAAAAGG	8990
CTTCTGTAAATTTTTCACGTGACCTGACGCGCCCCG	9980
ACCTACGAGTCCGGCCACGTGCGATCCGTAGCCATT	15600
TGCGCAACAACTTTTCACGTGGGATTATGTCTAGAA	12200
GTCTTGTCTCATTGTGGAGTGGGTGTCCCCACTTCA	4940
AAACCAGACAAGAGTCAGGTGACGCTGCAGATGAAA	3800
